Measurements from different studies.
A part holds a random share of what one study measured. Positions count from the first letter of the parent shown.

Set 1 — target: vanadate, free oxyanion; method: microfluidic competitive inhibition; sample: in vitro, cell-free expressed; tested at: not given; direction: lower = stronger binding
Setting: derived from inhibition constants, unchanged parent 676 nM
Starting sequence: PafA, mature enzyme, eGFP fusion (Elizabethkingia meningoseptica, UniProt Q9KJX5); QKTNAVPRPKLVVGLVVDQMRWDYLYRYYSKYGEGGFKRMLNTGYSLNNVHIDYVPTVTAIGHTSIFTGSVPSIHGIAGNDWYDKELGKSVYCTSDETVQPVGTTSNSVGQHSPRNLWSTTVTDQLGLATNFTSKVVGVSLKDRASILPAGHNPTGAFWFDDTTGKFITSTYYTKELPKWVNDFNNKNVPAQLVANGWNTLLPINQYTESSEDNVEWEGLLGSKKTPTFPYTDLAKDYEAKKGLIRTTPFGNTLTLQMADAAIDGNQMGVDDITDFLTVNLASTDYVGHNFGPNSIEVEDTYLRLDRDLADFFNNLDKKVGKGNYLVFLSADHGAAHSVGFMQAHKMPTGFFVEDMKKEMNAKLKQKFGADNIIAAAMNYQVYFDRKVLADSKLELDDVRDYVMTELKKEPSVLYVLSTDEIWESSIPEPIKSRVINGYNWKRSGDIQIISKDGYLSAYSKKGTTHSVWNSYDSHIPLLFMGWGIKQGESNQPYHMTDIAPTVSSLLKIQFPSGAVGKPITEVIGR
`P519V`: “oxyanion analog dissociation constant” 859 nM.
`L202V`: “oxyanion analog dissociation constant” 803 nM.
For `I509G`, “oxyanion analog dissociation constant” read 726 nM.
`T497V`: “oxyanion analog dissociation constant” 766 nM.

Set 2 — method: protein binding microarray; molecule type: double-stranded DNA, one strand shown; sample: in vitro; tested at: not given; baseline: not given; direction: higher = stronger binding
Target: Histone acetyltransferase KAT6A, winged helix 1, GST fusion (KAT6A, Homo sapiens, UniProt Q92794, residues 1-85)
Setting: 8-mer, flanks averaged, mean of 2 arrays, mostly near background
Target sequence (chain): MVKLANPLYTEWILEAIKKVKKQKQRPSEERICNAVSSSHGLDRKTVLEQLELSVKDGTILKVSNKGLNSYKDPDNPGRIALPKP
`CGAGCCCA` has an E-score of -0.184.
With `CATATAGA` the E-score was 0.022.
For `CGTTTTCC`, the E-score was -0.00879.
`AAAATCCC` gave an E-score of 0.00742.
`ACTCGCAA` gave an E-score of -0.131.
`AGTTTGAA` gave an E-score of 0.0321.
The E-score of `CCAAGAAA` is reported as -0.287.
`TACCTGGA` has an E-score of -0.0621.

Set 3 — observed: binding; method: phage display NGS; molecule type: peptide; tested at: concentration not given; setting: panning round 4; baseline: input library
Target: UDP-N-acetylglucosamine--peptide N-acetylglucosaminyltransferase 110 kDa subunit (OGT, Homo sapiens, UniProt O15294)
Construct (O15294 1-1046): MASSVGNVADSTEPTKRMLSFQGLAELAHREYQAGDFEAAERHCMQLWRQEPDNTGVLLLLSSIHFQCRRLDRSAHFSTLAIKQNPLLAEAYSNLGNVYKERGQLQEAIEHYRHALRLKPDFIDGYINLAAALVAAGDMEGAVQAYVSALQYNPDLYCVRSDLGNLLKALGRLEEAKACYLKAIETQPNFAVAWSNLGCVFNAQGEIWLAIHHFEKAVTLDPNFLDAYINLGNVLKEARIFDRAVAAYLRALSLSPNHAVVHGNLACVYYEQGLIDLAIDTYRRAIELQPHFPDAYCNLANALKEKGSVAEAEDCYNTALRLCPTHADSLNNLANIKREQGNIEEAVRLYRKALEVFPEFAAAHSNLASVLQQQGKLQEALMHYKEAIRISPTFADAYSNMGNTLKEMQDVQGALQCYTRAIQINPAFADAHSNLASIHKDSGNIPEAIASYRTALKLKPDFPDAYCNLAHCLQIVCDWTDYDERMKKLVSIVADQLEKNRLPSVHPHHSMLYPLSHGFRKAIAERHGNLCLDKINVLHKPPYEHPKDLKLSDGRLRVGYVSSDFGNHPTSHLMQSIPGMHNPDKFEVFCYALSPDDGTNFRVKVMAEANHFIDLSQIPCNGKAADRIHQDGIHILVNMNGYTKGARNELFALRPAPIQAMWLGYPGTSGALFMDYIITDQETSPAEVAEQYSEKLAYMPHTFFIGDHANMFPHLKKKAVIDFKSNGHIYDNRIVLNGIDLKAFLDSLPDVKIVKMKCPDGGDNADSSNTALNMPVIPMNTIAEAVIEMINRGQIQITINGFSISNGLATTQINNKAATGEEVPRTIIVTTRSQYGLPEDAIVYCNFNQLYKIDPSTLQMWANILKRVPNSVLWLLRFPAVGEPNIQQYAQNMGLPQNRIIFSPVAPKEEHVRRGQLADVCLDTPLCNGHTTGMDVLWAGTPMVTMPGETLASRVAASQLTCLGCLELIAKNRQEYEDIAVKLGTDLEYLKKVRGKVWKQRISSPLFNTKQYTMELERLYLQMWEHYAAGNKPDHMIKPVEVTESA
`APQQYLPAYQIHYNK`: “enrichment fold change” 1.67.
`FSEYQPQYQISYNKF`: “enrichment fold change” 1.96.
Under “enrichment fold change”, `GPFQPFYQIYFDTLP` is recorded as 1.56.

Set 4 — target: CCNB1, cyclin fold, Cln2 fusion (human); method: yeast growth competition, sequencing; sample: yeast; setting: weak parent motif; baseline: not given; direction: higher = stronger binding; starting sequence: viral docking peptide; PTARRRLLHDLDT
`PTARRRLLHDADT [L11A]` — result for “normalised enrichment score”: 0.358.
Under “normalised enrichment score”, `PTARRRLLFDLDT [H9F]` is recorded as 1.45.
`PTARRALLHDLDT [R6A]` — result for “normalised enrichment score”: 1.31.
Under “normalised enrichment score”, `PTARKRLLHDLDT [R5K]` is recorded as 0.0738.
For `ATARRRLLHDLDT [P1A]`, “normalised enrichment score” read 0.575.
Under “normalised enrichment score”, `PTARRRLFHDLDT [L8F]` is recorded as 0.55.
`PTARRRLLHDLDA [T13A]` — result for “normalised enrichment score”: 0.387.
For `PTARRRLLHALDT [D10A]`, “normalised enrichment score” read 0.121.
Under “normalised enrichment score”, `PTARAAAAHDLDT [R5A R6A L7A L8A]` is recorded as 0.0632.
Under “normalised enrichment score”, `PTARRRLLADLDT [H9A]` is recorded as 0.867.

Repeated from above (set 1):
`L202V`: “oxyanion analog dissociation constant” 803 nM.
For `I509G`, “oxyanion analog dissociation constant” read 726 nM.
`T497V`: “oxyanion analog dissociation constant” 766 nM.
